Measured values collected from several papers.
Parts stem from different laboratories: compare values within a part only. Changes are numbered by the printed parent chain.

Study 1
Target: UBE2L3 UBC core domain (UniProt P68036)
Technique: yeast two-hybrid
Medium: yeast
Notes: mostly zero background
Reference: not given
Reading: higher = stronger interaction
Measurement: lacZ reporter activity
B1: ZNRF3 RING domain (UniProt Q9ULT6); chain DTLSSSSTSDCAICLEKYIDGEELRVIPCTHRFHRKCVDPWLLQHHTCPHCRHNIIEQKGNP
B2: RNF24 RING domain (UniProt Q9Y225); chain KVKELNLHELCAVCLEDFKPRDELGICPCKHAFHRKCLIKWLEVRKVCPLCNMPVLQLAQLH
B3: TRIM48 RING domain (UniProt Q8IWZ4); chain ISQVFQRELTCPICMNYFIDPVTIDCGHSFCRPCFYLNWQDIPILTQCFECIKTIQQRNLKT
B4: TRIM22 RING domain (UniProt Q8IYM9); chain KEVKMSPQEGQKRDVCEHHGKKLQIFCKEDGKVICWVCELSQEHQGHQTFRINEVVKECQEK
B5: RNF135 RING domain (UniProt Q8IUD6); chain PVWLAEDDLGCIICQGLLDWPATLPCGHSFCRHCLEALWGARDARRWACPTCRQGAAQQPHLR
B6: Ltn1 RING domain (UniProt Q6A009); chain VDKRFEGVEDCMICFSVIHGFNYSLPKKACRTCKKKFHSACLYKWFTSSNKSTCPLCRETFF
B7: DTX1 RING domain (UniProt Q86Y01); chain QKVKNPPDEDCTICMERLVTASGYEGVLRHKGVRPELVGRLGRCGHMYHLLCLVAMYSNGNKDGSLQCPTCKAIYGEKTGTQ
B8: PRKN RING domain (UniProt O60260); chain LIATNSRNITCITCTDVRSPVLVFQCNSRHVICLDCFHLYCVTRLNDRQFVHDPQLGYSLPCVAGCPNSLIKELHH
B9: RNF181 RING domain (UniProt Q9P0P0); chain VIRGSQAELKCPVCLLEFEEEETAIEMPCHHLFHSSCILPWLSKTNSCPLCRYELPTDDDTY
B1 (ZNRF3 RING domain): 0
B2 (RNF24 RING domain): 0
B3 (TRIM48 RING domain): 0
KITELNPHLMCVLCGGYFIDATTIIECLHSFCKTCIVRYLETSKYCPICDVQVHKTRPLL (BMI1 RING domain (UniProt P35226)): 0
B4 (TRIM22 RING domain): 0
NTAPSLTVPECAICLQTCVHPVSLPCKHVFCYLCVKGASWLGKRCALCRQEIPEDFLDK (RNF146 RING domain (UniProt Q9NTX7)): 0
B5 (RNF135 RING domain): 0
B6 (Ltn1 RING domain): 0
B7 (DTX1 RING domain): 0
B8 (PRKN RING domain): 0
ALDRLEKLLRCSRCTNILREPVCLGGCEHIFCSNCVSDCIGTGCPVCYTPAWIQDLKI (BARD1 RING domain (UniProt Q99728)): 0
MDDQGCPRCKTTKYRNPSLKLMVNVCGHTLCESCVDLLFVRGAGNCPECGTPLRKSNFRV (MNAT1 RING domain (UniProt P51948)): 0
QLRRLQEERTCKVCLDRAVSIVFVPCGHLVCAECAPGLQLCPICRAPVRSRVRTF (BIRC7 RING domain (UniProt Q96CA5)): 0
B9 (RNF181 RING domain): 0

Study 2
Target: CCND1, cyclin fold, Cln2 fusion (human)
Technique: yeast growth competition, sequencing
Medium: yeast
Notes: weak parent motif
Reference: not given
Reading: higher = stronger binding
Measurement: normalised enrichment score
Parent: BORA docking peptide (human); SSLRRKLFLDGNG
SSLRRKLALDGNG [F8A]: 0.157
SSLRKKLLLDGNG [R5K F8L]: 0.0986
SSLRRKAFLDGNG [L7A]: -0.495
SSLARKLFLDGNG [R4A]: 0.134
ASLRRKLFLDGNG [S1A]: 0.155
SSLRRKLLLDGNG [F8L]: 0.241
SSLRRKLFADGNG [L9A]: -0.405
SSLRRKLFLAGNG [D10A]: 0.291
SSLRRKLFFDGNG [L9F]: 0.468
SSLRRKLFLDGNA [G13A]: 0.1

Study 3
Target: ABI1, truncated, D143A, DHFR fusion (Arabidopsis thaliana)
Technique: DHFR PCA, deep sequencing
Medium: yeast
Notes: methotrexate growth selection, single substitutions
Together with: (+)-ABA 0.0091 µM
Reference: wild-type fitted maximum
Reading: higher = stronger binding
Measurement: relative binding score
Parent: PYL1, truncated, DHFR fusion (Arabidopsis thaliana); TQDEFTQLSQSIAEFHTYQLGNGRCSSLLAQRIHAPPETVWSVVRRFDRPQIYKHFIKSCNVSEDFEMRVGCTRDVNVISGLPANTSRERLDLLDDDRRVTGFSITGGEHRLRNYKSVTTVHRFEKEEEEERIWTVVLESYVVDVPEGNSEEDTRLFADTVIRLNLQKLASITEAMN
K54E: -9.56%
P37V: 10.6%
Q10G: 31.6%
P50H: 7.8%
N165Q: -5.53%
P37E: -1.94%
V70E: 6.66%
A175P: 1.18%
A13F: 1.86%
V100F: -8.94%
T154M: 7.98%
G148E: 3.97%
G21C: 15.9%
T39C: 14.3%
Q51R: 4.48%
Q10P: 31.5%
F157C: 1.22%
P37W: 0.298%
H16M: -1%
V43Y: -0.923%
P36A: 16.7%
W134R: 8.03%
T86S: 17.6%
V100T: -6.68%
K168R: 23.4%

Study 4
Target: Phosphate system positive regulatory protein PHO4, full length, GST-tagged (PHO4, Saccharomyces cerevisiae, UniProt P07270, residues 1-312)
Technique: competition protein-binding microarray
Form: double-stranded DNA, one strand shown
Medium: in vitro
Concentration: 2 µM
Notes: whole 60-bp probe, lowest competitor level
Together with: Cbf1 competitor, 0.05 µM
Reading: higher = stronger binding
Measurement: fluorescence intensity
Constant ends, left off below: … GTCTTGATTCGCTTGACGCTGCTG
Target sequence (chain): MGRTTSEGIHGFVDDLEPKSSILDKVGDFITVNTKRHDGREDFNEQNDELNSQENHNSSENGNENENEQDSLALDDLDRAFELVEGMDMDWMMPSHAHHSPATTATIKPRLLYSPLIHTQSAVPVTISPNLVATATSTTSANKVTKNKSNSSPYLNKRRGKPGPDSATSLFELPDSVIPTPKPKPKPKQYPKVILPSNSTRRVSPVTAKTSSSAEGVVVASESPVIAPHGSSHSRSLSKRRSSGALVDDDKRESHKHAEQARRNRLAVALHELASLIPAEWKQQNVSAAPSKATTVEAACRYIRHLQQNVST
CTAACGAAGGTTTGAATCGTGGGTGACAAGCCAAGT: 6780 a.u.
TTTCCAGTTAGGTACCATGTGGCATGCTGTTTTTCC: 10200 a.u.
GATGCTAAGAAGATATCCGTGATGGGCATCCGAGCT: 3130 a.u.
AGTGCCAGGTAAGTTGTCGTGGGTATCACCCGGAGA: 4870 a.u.
TGCGCAACAACTTGTTGTGTGGGTGTATGTCTAGAA: 4680 a.u.
ATGTACAGTGGTACCCTCGTGTCCTCTGCAGCGAGA: 11200 a.u.
GTCTTGTCTCATTGTCACCAGACTTTCCCCACTTCA: 4290 a.u.
ATAATTGTGTACCGACACGTGCAAATTTGGTACGAA: 19900 a.u.
ATAACCATAGGAAAGCACGTGATGGTGGAAGGACAG: 18000 a.u.
GTCTTGTCTCATTGCTCCGTGGGTGTCCCCACTTCA: 5800 a.u.
GTTGAGCAGCTCTCCTGCGTGCTTTCACAGAGACCC: 6930 a.u.
ATCCTCTTCTTCGTCCACGTGCCGACTTTTGTTTCT: 16400 a.u.
CCGCAACTCCGCGATCGCGCGCCAAGGGCCGTCGGC: 2340 a.u.
GGTAATGACATTCGTCACGTGCTTTAGGGCTTGGTG: 15800 a.u.
TCGCCTACGCTATTTCACGTTTGTGCTGATAGAAAC: 6790 a.u.
CGTCCTAGTGATTGGTATGTGGGTGCCATGAGGAAG: 7370 a.u.
GACGCCAAGTCCCATCACGTGGTTACGATGTATCGG: 14800 a.u.
CTAACGAAGGTTTGGTCCGTGGGTGACAAGCCAAGT: 6390 a.u.
GTAATAGTACCTTAACACATGACGAAGATGAAAATT: 6940 a.u.
AAGATCCGGATCAAGACCGTGATGGCCAGCGCGATA: 4900 a.u.
GCTAGAGTAAAATAGTGCATGACAAAAGATGAGCTA: 4850 a.u.
GACCTTGAATGCTAGAACGTGGAACATGAATTCCAG: 10800 a.u.
CCAGTGATTGCGTCCCACGCTCGTTACTGGTTCCTG: 6800 a.u.
GTTTCTGTCGCAAAGCACGTTATGGCCACAATTTTG: 8500 a.u.
TCCAATTGTTAGAACGCCAGTCAGTTGTTTTCTTCG: 3310 a.u.

Study 5
Target: JUNB, bZIP domain (human)
Technique: DHFR protein complementation
Medium: yeast
Notes: single substitutions, most at no-binding floor
Reference: wild-type JUN-FOS pair
Reading: higher = stronger binding
Measurement: binding fitness
Parent: JUN, bZIP domain (human); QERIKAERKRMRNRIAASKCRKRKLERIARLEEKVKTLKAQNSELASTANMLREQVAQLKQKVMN; partner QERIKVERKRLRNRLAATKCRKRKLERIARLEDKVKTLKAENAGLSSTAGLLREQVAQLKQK
S47E: -0.823 natural log
A57W: -1.41 natural log
A49S: -1.42 natural log
T48M: -1.1 natural log
E54I: -1.26 natural log
V56P: -1.5 natural log
K36T: -1.34 natural log
A57H: -1.18 natural log
E44P: -1.56 natural log
R30T: -0.9 natural log
E54G: -1.27 natural log
S43K: -0.743 natural log
T37R: -1.07 natural log
K39N: -1.39 natural log
L31V: -1.34 natural log
M51V: -1.19 natural log
A29V: -1.36 natural log
A40Q: -0.838 natural log
K36R: -0.977 natural log
A29D: -1.37 natural log
R30I: -1.13 natural log
S43C: -1.19 natural log
L38D: -1.51 natural log
L45K: -1.42 natural log
L31N: -1.48 natural log

Repeated from above (study 2):
SSLARKLFLDGNG [R4A]: 0.134
SSLRRKLFLDGNA [G13A]: 0.1
ASLRRKLFLDGNG [S1A]: 0.155
SSLRRKAFLDGNG [L7A]: -0.495
SSLRRKLFLAGNG [D10A]: 0.291
